{"data": "Published values of several laboratories", "target": "RAC-beta serine/threonine-protein kinase (AKT2, Homo sapiens, UniProt P31751)", "note": "Each line is one published result; not all experiments were run side by side. Several values in a cell are separate wells, animals, samples, runs or records."}
{"assay": "enzyme activity, inhibitor", "setting": "1 µM", "quantity": "inhibition", "value": "2%", "SMILES": "Cc1cccc(O[C@H]2CCC[C@@H](C(C)CNCc3ccncc3)C2)c1 (relative stereo)"}
{"assay": "cell-free assay, inhibitor", "setting": "1 µM", "quantity": "inhibition", "value": "6.6%", "SMILES": "C=CC(=O)N1Cc2nc(-c3cc(-c4cc(Cl)cnc4Cl)c(F)cc3F)n(-c3ccncn3)c2C1"}
{"assay": "cell-free assay, competition with immobilised ligand", "setting": "1 µM", "quantity": "remaining binding", "value": "93%", "SMILES": "C=CC(=O)N1CCCC(n2c(=O)c3ncccc3n(Cc3ccc(Oc4ccccc4)cc3)c2=O)C1 (stereo not shown)"}
{"assay": "kinobead competition pulldown", "test system": "HEK293/HCT116 lysate mixture", "setting": "10 µM, 1 h, 4 °C", "scale": "lower = stronger competition", "quantity": "log2 LFQ intensity", "value": "21.6 and 21.7 and 22.2", "SMILES": "N[C@H]1CC[C@H](Nc2nccc(-c3cccnc3Oc3ccc(NC(=O)NC4CC4)c4ccccc34)n2)CC1"}
{"assay": "enzyme activity, inhibitor", "setting": "1 µM", "quantity": "inhibition", "value": "-3%", "SMILES": "CN1CC[C@@H](COc2cnc(C#N)cc2-c2ccn3nc(NC(=O)C4CC4)cc3c2)C1"}
{"assay": "enzyme activity, inhibitor", "setting": "10 µM", "quantity": "inhibition", "value": "7%", "SMILES": "NC(=O)[C@@H](O)C[C@H]1CCc2sc3ncnc(O[C@H]4CC[C@H](N5CCOCC5)CC4)c3c21"}
{"assay": "kinase activity, inhibitor", "setting": "1 µM", "scale": "relative to: untreated control", "quantity": "remaining activity", "value": "105%", "SMILES": "COc1c(OCCCN2CCOCC2)ccc2c1N=C(NC(=O)c1cnc(N)nc1)N1CCN=C21"}
{"assay": "cell-free assay, competition with immobilised ligand", "setting": "10 µM", "quantity": "remaining binding", "value": "100%", "SMILES": "CC(C)=CC1OC(C)(C)C2C=C3C(=O)C(Cl)=CC(O)C3C3C(O)C4OC4C(=O)C132 (stereo not shown)"}
{"assay": "cell-free assay, competition with immobilised ligand", "setting": "1 µM", "quantity": "remaining binding", "value": "100%", "SMILES": "Cc1ccc(-c2c(/C=C(\\C#N)C(=O)NC(C)C)n(CCCO)c3ncnc(N)c23)cc1"}
{"assay": "enzyme activity, inhibitor", "setting": "0.1 µM", "quantity": "inhibition", "value": "3%", "SMILES": "C=CC(=O)Nc1cccc(-c2cnc3[nH]cc(C(=O)NC(C)(C)C)c3n2)c1"}
{"assay": "binding, competition with immobilised ligand", "setting": "1 µM", "quantity": "remaining binding", "value": "100%", "SMILES": "COc1cc(Nc2nccc(-c3cnn4nc(OC)ccc34)n2)cc(C(F)(F)F)c1"}
{"assay": "enzyme activity, inhibitor", "setting": "10 µM", "quantity": "activity vs control", "value": "108%", "SMILES": "O=C(Cc1ccc(OCc2ccccc2)cc1)NC1(C(=O)O)CCN(C(=O)c2ccc(-c3cccc(Cl)c3)cc2)CC1"}
{"assay": "KinomeScan", "setting": "0.1 µM", "scale": "relative to: untreated", "quantity": "remaining binding", "value": "100%", "SMILES": "CNC1C[S+]2CC[S+]3CC[S+](C1)[Ru-4]321([N]=C=S)[n]2c3ccc(OC)cc3c3c4c(c5cc(F)c[n+]1c5c32)C(=O)NC4=O (stereo not shown)"}
{"assay": "enzyme activity, inhibitor", "setting": "10 µM", "quantity": "activity vs control", "value": "59%", "SMILES": "Cc1ccc(C)c(-c2ccc3nc(NC(=O)C4CCCCC4)nn3c2)c1"}
{"assay": "kinase activity, inhibitor, ProQinase kinase profiling", "setting": "25 µM", "scale": "relative to: control", "quantity": "remaining activity", "value": "118% and 96%", "SMILES": "COCC12C(=O)NC3C4(C(OC)CC1O)C1CC5(O)C(OC)C(O)C(OC(C)=O)(C1C5OC(=O)c1ccccc1)C3(O)C(OC)C24 (stereo not shown)"}
{"assay": "enzyme activity, inhibitor", "setting": "10 µM", "quantity": "activity vs control", "value": "66%", "SMILES": "Cc1cccc(-c2ccc3nc(NC(=O)C4CCOCC4)nn3c2)c1"}
{"assay": "cell-free assay, competition with immobilised ligand", "setting": "0.5 µM", "quantity": "remaining binding", "value": "84%", "SMILES": "CN1CCN(Cc2ccc(NC(=O)c3cccc(C#Cc4cnc(N)c5ncccc45)c3)cc2C(F)(F)F)CC1"}
{"assay": "binding, competition with immobilised ligand", "setting": "10 µM", "quantity": "remaining binding", "value": "100%", "SMILES": "CNS(=O)(=O)Nc1nccc(Cc2c(C)c3ccc(Oc4ncccc4F)cc3oc2=O)c1F"}
{"assay": "binding", "setting": "0.1 µM", "quantity": "remaining binding", "value": "100%", "SMILES": "Cc1cnc2nc1Nc1cccc(c1)COC/C=C/COCc1cc(ccc1OCCN1CCOCC1)N2"}
{"assay": "enzyme activity, inhibitor", "setting": "0.1 µM", "quantity": "inhibition", "value": "-8%", "SMILES": "CN1CCN(Cc2ccc(-c3ccc(CO[C@H]4CCC[C@@H]4NC(=O)c4cc(-c5cnn(C)c5)cnc4N)cc3)cc2)CC1"}
{"assay": "binding, competition with immobilised ligand", "setting": "10 µM", "quantity": "remaining binding", "value": "80%", "SMILES": "COc1ccc(NC(=O)Nc2ccc3c(c2)C(=O)N(C(C)CO)CC(C)C(CN(C)Cc2ccc4c(c2)OCO4)O3)cc1 (stereo not shown)"}
{"assay": "enzyme activity, inhibitor", "setting": "20 µM", "quantity": "inhibition", "value": "-13%", "SMILES": "COc1ccc(C(=O)/C=C/c2ccccc2-c2c[nH]c3ccc(C#N)cc23)c(O)c1"}
